Experimental data collected from several papers.
Numbered parts are unrelated; each lists some results of a single study. Changes are numbered by the printed parent chain.

Set 1
Target: Fragile X messenger ribonucleoprotein 1, C-terminal low-complexity region (Fmr1, Mus musculus, UniProt P35922)
Method: RNA Bind-n-Seq
Form: RNA
Matrix: in vitro
Concentration: 200 nM
Notes: whole 134-nt RNA, ends assumed
Added: 150 mM LiCl
Baseline: input library
Direction: higher = stronger binding
All molecules: 7-deaza-guanosine replaces G
The log2 enrichment of `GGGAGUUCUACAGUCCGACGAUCCAAGUCCUGUGCUACACAUCGUAUGUACCGAAUCGGGUUUUGGGUUUUGGUUUUGGAAAGUAUUAUGUUACGCCGUUCGGAUCUGCACUUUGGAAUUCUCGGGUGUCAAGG` is reported as -1.86.
For `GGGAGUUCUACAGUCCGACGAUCGUCCUGUGCUACACAUCGUAUGUACCGAAUCAAACCCCCCCAAAUUUAAAUUUUUAAAAAAGUAUUAUGUUACGCCGUUCGGAUCUGCACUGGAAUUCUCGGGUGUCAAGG`, the log2 enrichment was 1.82.
With `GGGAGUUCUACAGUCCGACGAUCCAAGUCCUGUGCUACACAUCGUAUGUACCGAAUCGGGGAAAGGGAAAGGAAAGGGAAAGUAUUAUGUUACGCCGUUCGGAUCUGCACUUCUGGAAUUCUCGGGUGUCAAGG` the log2 enrichment was -0.487.
`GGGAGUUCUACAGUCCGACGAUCCCCUGUGGGCCUUGCUCAGAGCGGAGAAAGCAUUUGUUUGUACAAGAUCCGCAGACGUGUAAAUGUUCCUGCAAAAACACAGACUCGCGUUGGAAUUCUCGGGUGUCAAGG` gave a log2 enrichment of -1.3.
`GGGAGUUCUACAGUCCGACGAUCGUCCUGUGCUACACAUCGUAUGUACCGAAUCGGCCCCCCGGCCCCCCGGGCCCCCCGGAAAGUAUUAUGUUACGCCGUUCGGAUCUGCACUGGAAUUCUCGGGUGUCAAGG` gave a log2 enrichment of 1.29.
`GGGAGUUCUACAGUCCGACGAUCAGUCCUGUGCUACACAUCGUAUGUACCGAAUCGGGUUUGGGUUUUUGGGAAAAAGGGAAAGUAUUAUGUUACGCCGUUCGGAUCUGCACUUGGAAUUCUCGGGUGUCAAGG` gave a log2 enrichment of -1.37.
`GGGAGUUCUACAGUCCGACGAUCGCAGGAAGUAAAAACAAAUGGAAAUAAAUCGGAUAGUGGCAGGGGUGGGGGUUGCUAAGGAAAGGGUGGGAUGGGAGUGGGUAAAGAGUUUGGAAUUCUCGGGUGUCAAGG` gave a log2 enrichment of 1.82.
For `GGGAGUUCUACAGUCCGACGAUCCCUCAAGUCCUGUGCUACACAUCGUAUGUACCGAAUCGGGAGGGAGGGGAGGGAAAGUAUUAUGUUACGCCGUUCGGAUCUGCACUUCCAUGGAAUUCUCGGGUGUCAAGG`, the log2 enrichment was -1.26.

Set 2
Target: CCNF, cyclin fold, Cln2 fusion (human)
Method: yeast growth competition, sequencing
Matrix: yeast
Notes: strong parent motif
Baseline: not given
Direction: higher = stronger binding
Starting sequence: SLBP docking peptide (human); ARYKRKLLINDFG; partner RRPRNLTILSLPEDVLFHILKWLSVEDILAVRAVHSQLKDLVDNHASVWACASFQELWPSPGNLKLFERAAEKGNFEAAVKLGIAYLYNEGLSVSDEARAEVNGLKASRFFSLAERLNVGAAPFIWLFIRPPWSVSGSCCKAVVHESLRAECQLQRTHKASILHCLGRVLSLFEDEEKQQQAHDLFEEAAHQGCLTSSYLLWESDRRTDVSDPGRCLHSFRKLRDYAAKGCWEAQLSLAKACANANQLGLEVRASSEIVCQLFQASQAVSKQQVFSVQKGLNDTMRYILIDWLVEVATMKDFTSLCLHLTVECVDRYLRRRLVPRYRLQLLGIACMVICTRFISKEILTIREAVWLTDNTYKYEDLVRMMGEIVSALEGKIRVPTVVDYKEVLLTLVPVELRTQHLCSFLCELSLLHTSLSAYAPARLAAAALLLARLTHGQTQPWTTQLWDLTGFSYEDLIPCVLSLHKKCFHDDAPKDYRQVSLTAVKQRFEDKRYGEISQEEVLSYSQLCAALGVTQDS
`CRYKRKLLINDFG [A1C]`: “normalised enrichment score” 1.56.
`ARYKEKLLINDFG [R5E]`: “normalised enrichment score” 1.29.
`ARYKRKLLYNDFG [I9Y]` — result for “normalised enrichment score”: 3.68.
`ARYKNKLLINDFG [R5N]`: “normalised enrichment score” 1.09.
For `ARYKRKLLINDFH [G13H]`, “normalised enrichment score” read 1.72.
For `ARYKRKLLINDAG [F12A]`, “normalised enrichment score” read 1.56.
`ARSKRKLLINDFG [Y3S]` — result for “normalised enrichment score”: 2.27.
For `IRYKRKLLINDFG [A1I]`, “normalised enrichment score” read 1.66.
`ARYCRKLLINDFG [K4C]`: “normalised enrichment score” 1.27.
`ARYKRGLLINDFG [K6G]` — result for “normalised enrichment score”: 1.3.
Under “normalised enrichment score”, `ARYKRKELINDFG [L7E]` is recorded as 0.495.
`ARYKRKLDINDFG [L8D]`: “normalised enrichment score” 2.18.
For `ARYKRKLEINDFG [L8E]`, “normalised enrichment score” read 1.23.
Under “normalised enrichment score”, `ARYKRKLLINDFA [G13A]` is recorded as 1.51.
For `ARYKRKLLKNDFG [I9K]`, “normalised enrichment score” read 2.07.

Set 3
Target: RNA binding protein fox-1 homolog 2, RRM domain, GST-SBP tag (RBFOX2, Homo sapiens, UniProt O43251-10, residues 100-194)
Method: RNA Bind-n-Seq
Form: RNA
Matrix: in vitro
Concentration: 365 nM
Notes: natural RNA segment, single round, ends assumed
Baseline: no-protein control
Direction: higher = stronger binding
For `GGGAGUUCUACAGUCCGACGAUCAAUCUGUAAAUGAUGGCUUGAUGUACAGAAAAUGUAUUUUUGCUUAAAAGAUGCCUGGGUACCUUUUAUUUUAUGGCAUUUGUAUUAAAAAUAAAGUAUGAUGGUAAGAAUGGAAUUCUCGGGUGCCAA`, “RBNS enrichment (R)” read 0.679.
`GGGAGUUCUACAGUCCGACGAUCGGGCUCUCCGGUGCAGCUUUAACUGCAGCCGCUCUGGUAAGCCGCUCUUAUUUCCCCUUCUGUCUGCAGCCAGUCAUGUGGCAUGGGAGCUGUGCUGGGGAGGCAGUGUAUGGAAUUCUCGGGUGCCAA`: “RBNS enrichment (R)” 2.96.
`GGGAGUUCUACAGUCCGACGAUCAUUUUUAGACUAAAUCCACGCAUGAAAAAUAUUUCCUCAUUAUUCUUAUCUGCUUAGUGGAUUUUAUGCCCUUAUAACUAAGUAAAGAAAAUUUAUGACUACCAAAUAUUUGGAAUUCUCGGGUGCCAA` — result for “RBNS enrichment (R)”: 5.45.
`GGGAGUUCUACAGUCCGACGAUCAGCAUGUGGGUAUUUGUCGACCAAAAUGAUGCCAAUUUGUAAAUUAAAAUGUCACCUAGUGGCCCUUUUCUUAUGUGUUUUUUUGUAUAAGAAAUUUUCUGUGAAAUAUCUGGAAUUCUCGGGUGCCAA`: “RBNS enrichment (R)” 48.2.
For `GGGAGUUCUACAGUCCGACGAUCUAACUGAAUAUUCAAAGCACUGCGGGAAACCUGUGCCUCCAGACACUGCUCCCUGUGAAAUUCUGAAGGUGUUUCUUAGUGGAUUAUCGUAAAUCACUGAACCUUUUUUUUGGAAUUCUCGGGUGCCAA`, “RBNS enrichment (R)” read 0.506.
`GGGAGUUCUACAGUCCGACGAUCGGCAGGUUCCCACCUCGCAAGCAAUUGGAAACAAAACUUUUGGGGAGUUUUAUUUUGCAUUAGGGUGUGUUUUAUGUUAAGCAAAACAUACUUUAGAAACAAAUGAAAAAUGGAAUUCUCGGGUGCCAA` — result for “RBNS enrichment (R)”: 0.439.
For `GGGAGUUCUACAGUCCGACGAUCUUGUAACAAUUUAUGUUUUACAGUUCCUUUUACAAAGUGUAUUUUUACUCCAGUGUGUCUUGGCUUACACAAUUUAACAGCUUUCUGAUUUUAUUCACAUACAGUGAUGAUGGAAUUCUCGGGUGCCAA`, “RBNS enrichment (R)” read 0.628.
`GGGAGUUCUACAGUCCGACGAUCACACUGGACUCCAAAGAGCAGGUGGAACAAACUCUGGCCUGAAGAUGAUGGCUAAUACUCAGGCAGAGCCCCGUAUUCUUCCCUGACUUGGUCAAAACAAACUUCCUUUUUGGAAUUCUCGGGUGCCAA` — result for “RBNS enrichment (R)”: 0.57.
`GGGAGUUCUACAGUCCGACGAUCUGGACUAAACUGCACCAAGGAAACACCCAGCAGGGUCUCCUGUGAGCCGGGGACCAUGCAGCCCGAAACCUCCAGUCACUGCGCCCGGCAGGAGUCAGGAGCCAGGGACUUGGAAUUCUCGGGUGCCAA` — result for “RBNS enrichment (R)”: 0.78.
`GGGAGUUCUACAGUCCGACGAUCUGGUUUCUGGAGACAAAUAAUUUGUUUUCAUUAUCAUUGUAUAAUCAGGUUAAUGAUUUAUUUUUUGACUAAAUGUGCAAUUUCUUAUCACUAGAUAACUUUCAGUAUCAUGGAAUUCUCGGGUGCCAA`: “RBNS enrichment (R)” 0.373.
Under “RBNS enrichment (R)”, `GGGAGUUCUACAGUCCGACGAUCCUACCCACCUGGUGGACCCAGGGACUGAAGCAAUGGCACAGAGACCAUGACAGACUGUGCUCCUAUCCUGGGUUGAGUCCCGAUGCAUAUUCCUGCUUCAUUUCCUUUUCUGGAAUUCUCGGGUGCCAA` is recorded as 0.519.
`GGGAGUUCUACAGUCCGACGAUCGGGGAAACCUCCUUCCACCUGAGCUUGCUUGAAGGGACCCAGAGUCUUUGGGCCCAGAUCUUUAAACCUUUGUGUCGUGUUGCAGCAGAGUGACGAUGGGGGUUGGGGGGUGGAAUUCUCGGGUGCCAA` — result for “RBNS enrichment (R)”: 5.35.

Mixed results
For `PhoQ, residues 284 288 289 292 302 303 ASASEQ`, the fold induction was 0.99 (PhoP, residues 12 14 15 18 19 NQFFI (Escherichia coli, UniProt P23836); Sort-seq, refers to: YFP reporter; E. coli; PhoQ-PhoP variant library, added: 10 µM Mg2+; baseline: high Mg2+ state, higher = stronger signaling).

Excerpt of the above (set 1):
For `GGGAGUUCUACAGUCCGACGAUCGUCCUGUGCUACACAUCGUAUGUACCGAAUCAAACCCCCCCAAAUUUAAAUUUUUAAAAAAGUAUUAUGUUACGCCGUUCGGAUCUGCACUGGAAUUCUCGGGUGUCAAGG`, the log2 enrichment was 1.82.
With `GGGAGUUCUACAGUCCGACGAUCCAAGUCCUGUGCUACACAUCGUAUGUACCGAAUCGGGGAAAGGGAAAGGAAAGGGAAAGUAUUAUGUUACGCCGUUCGGAUCUGCACUUCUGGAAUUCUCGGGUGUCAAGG` the log2 enrichment was -0.487.
`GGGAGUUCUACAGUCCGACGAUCCCCUGUGGGCCUUGCUCAGAGCGGAGAAAGCAUUUGUUUGUACAAGAUCCGCAGACGUGUAAAUGUUCCUGCAAAAACACAGACUCGCGUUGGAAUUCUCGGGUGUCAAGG` gave a log2 enrichment of -1.3.
`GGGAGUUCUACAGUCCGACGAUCGUCCUGUGCUACACAUCGUAUGUACCGAAUCGGCCCCCCGGCCCCCCGGGCCCCCCGGAAAGUAUUAUGUUACGCCGUUCGGAUCUGCACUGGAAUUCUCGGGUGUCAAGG` gave a log2 enrichment of 1.29.
